Measured values from different studies.
Compare with care: the assays were run in different laboratories.
PIK3CA M1043I: Phosphatidylinositol 4,5-bisphosphate 3-kinase catalytic subunit alpha isoform (PIK3CA, Homo sapiens, UniProt P42336, M1043I)
UniProt P42336, sequence (whole entry, unmodified, looked up): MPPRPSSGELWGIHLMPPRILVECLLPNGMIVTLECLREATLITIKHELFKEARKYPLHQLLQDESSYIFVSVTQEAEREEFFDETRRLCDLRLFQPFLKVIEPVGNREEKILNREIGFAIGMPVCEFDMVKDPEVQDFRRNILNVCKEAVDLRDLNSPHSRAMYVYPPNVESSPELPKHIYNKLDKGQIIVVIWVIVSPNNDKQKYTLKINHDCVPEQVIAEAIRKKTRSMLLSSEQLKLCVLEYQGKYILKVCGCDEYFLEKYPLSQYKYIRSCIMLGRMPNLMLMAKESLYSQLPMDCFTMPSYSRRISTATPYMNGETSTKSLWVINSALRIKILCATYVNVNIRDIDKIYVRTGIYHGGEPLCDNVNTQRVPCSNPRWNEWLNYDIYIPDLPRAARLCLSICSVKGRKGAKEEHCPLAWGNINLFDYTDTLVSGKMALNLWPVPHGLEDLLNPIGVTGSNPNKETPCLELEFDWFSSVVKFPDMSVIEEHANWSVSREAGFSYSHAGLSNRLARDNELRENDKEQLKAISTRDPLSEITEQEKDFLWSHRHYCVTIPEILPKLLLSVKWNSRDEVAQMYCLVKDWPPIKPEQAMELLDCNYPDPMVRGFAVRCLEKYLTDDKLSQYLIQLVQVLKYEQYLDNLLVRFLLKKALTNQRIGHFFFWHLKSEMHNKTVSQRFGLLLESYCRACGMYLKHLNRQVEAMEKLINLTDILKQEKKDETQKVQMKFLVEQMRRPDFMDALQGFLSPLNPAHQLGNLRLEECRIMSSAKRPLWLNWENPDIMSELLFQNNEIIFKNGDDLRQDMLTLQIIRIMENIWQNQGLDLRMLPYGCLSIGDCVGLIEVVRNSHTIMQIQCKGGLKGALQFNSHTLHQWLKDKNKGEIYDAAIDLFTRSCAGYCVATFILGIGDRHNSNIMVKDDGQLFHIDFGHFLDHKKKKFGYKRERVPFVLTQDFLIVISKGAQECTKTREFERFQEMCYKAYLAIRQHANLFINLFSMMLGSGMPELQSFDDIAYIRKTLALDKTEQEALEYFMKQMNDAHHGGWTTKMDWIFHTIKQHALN
MTNR1A: Melatonin receptor type 1A (MTNR1A, Homo sapiens, UniProt P48039)
UniProt P48039, sequence (whole entry, looked up): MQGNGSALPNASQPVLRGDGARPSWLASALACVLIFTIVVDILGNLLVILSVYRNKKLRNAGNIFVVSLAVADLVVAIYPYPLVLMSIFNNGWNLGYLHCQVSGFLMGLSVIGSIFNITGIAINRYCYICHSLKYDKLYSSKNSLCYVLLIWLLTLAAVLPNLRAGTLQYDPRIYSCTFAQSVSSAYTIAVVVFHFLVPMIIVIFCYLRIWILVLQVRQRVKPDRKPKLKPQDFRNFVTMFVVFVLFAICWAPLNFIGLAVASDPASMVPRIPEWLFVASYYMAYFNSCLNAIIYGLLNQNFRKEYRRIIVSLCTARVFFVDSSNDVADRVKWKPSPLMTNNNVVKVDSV
UniProt P57059, sequence (whole entry, looked up): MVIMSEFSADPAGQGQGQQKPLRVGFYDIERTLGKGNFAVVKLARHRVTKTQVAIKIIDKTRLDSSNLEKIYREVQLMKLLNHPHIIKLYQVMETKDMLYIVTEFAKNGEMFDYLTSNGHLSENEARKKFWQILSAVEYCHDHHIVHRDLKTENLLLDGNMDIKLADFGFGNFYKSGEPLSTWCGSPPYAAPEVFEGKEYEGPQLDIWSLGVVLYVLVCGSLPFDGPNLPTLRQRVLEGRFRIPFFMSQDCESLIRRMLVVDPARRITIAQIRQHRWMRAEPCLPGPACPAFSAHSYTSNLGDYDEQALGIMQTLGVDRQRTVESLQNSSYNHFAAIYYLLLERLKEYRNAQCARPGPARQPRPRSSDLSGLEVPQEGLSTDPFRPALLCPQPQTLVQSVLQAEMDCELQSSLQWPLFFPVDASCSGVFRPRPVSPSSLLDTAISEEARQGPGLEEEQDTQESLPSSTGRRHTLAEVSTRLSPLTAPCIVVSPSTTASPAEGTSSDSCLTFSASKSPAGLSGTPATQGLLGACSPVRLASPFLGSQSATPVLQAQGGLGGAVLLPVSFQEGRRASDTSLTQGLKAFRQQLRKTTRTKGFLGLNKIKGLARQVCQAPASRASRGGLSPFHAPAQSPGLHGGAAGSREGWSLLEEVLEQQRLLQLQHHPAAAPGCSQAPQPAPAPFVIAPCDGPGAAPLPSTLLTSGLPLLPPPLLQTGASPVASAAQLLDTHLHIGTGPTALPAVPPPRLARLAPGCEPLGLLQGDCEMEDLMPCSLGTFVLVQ
UniProt Q9NYL2, sequence (whole entry, looked up): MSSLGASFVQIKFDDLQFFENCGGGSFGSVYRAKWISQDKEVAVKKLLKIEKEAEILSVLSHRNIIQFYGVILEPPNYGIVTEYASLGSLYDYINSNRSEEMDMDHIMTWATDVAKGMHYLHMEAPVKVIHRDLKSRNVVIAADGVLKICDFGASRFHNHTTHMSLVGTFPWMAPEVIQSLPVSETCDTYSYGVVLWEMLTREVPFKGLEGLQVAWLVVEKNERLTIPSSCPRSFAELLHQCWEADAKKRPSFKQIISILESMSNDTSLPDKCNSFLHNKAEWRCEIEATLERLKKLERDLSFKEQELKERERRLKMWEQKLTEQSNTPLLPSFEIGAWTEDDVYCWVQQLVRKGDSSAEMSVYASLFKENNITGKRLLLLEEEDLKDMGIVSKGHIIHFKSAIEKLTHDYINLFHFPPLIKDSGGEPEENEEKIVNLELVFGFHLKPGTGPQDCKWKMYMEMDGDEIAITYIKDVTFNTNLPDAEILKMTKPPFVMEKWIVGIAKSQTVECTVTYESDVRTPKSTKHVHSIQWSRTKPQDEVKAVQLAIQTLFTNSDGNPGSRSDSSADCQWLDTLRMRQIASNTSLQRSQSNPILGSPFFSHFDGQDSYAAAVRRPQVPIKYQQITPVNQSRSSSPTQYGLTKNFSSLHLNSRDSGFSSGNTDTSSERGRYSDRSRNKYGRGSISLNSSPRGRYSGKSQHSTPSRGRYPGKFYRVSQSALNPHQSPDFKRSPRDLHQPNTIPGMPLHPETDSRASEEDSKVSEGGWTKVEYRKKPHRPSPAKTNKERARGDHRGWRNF
UniProt Q9BQI3, sequence (whole entry, looked up): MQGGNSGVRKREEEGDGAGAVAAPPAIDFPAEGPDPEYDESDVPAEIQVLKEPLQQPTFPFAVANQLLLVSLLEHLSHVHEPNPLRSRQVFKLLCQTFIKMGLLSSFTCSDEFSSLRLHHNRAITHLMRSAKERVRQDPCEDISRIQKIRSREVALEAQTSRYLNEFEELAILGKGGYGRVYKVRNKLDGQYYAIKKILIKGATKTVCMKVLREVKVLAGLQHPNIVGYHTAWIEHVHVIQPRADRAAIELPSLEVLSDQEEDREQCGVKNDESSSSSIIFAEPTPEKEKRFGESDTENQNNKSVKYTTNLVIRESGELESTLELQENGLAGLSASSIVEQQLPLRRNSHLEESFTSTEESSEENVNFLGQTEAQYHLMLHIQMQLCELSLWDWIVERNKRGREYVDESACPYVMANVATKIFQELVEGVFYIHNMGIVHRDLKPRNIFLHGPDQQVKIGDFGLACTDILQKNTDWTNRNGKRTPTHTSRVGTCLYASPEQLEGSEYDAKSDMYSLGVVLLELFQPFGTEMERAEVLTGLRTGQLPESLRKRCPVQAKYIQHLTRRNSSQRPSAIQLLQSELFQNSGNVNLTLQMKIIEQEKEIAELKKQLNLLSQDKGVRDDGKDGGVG
UniProt P10398, sequence (whole entry, unmodified, looked up): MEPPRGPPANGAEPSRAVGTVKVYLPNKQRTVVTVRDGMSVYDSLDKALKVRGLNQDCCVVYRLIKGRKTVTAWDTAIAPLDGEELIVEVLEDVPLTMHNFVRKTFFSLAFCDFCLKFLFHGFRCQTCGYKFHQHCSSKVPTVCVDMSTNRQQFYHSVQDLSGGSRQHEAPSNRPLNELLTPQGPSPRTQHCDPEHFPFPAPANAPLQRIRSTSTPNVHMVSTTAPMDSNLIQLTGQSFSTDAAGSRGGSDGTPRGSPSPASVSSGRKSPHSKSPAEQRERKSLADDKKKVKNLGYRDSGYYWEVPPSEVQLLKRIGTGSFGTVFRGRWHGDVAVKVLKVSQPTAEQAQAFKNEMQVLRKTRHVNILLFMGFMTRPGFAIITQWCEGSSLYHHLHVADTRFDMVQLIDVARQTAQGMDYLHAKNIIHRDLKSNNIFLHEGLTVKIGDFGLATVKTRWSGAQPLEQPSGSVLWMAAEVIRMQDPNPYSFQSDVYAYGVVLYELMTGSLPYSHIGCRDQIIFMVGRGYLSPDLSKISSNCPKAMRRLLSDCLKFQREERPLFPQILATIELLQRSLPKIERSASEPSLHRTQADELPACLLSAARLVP
UniProt O15111, sequence (whole entry, looked up): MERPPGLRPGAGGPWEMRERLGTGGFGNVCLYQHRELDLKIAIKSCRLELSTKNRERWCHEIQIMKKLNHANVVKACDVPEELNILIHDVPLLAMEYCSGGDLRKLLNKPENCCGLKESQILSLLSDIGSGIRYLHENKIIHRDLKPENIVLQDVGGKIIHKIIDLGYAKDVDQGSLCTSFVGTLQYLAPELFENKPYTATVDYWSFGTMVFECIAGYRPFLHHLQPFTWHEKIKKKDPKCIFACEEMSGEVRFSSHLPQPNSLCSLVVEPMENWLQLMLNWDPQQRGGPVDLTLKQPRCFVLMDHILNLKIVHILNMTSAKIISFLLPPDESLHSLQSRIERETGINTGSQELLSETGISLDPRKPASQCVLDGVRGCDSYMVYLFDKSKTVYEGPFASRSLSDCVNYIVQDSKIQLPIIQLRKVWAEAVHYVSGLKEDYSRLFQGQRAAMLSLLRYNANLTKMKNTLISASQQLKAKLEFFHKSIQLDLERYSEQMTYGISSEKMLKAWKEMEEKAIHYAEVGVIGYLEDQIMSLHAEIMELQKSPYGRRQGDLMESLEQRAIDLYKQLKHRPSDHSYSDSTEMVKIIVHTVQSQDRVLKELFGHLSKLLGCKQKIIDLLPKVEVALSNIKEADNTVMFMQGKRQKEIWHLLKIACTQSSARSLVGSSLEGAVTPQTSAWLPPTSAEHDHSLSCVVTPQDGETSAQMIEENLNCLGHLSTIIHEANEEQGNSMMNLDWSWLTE

SMILES	target or system	test	system	conditions	measurement	result
CC[C@H]1OC(=O)[C@H](C)[C@@H](O[C@H]2C[C@@](C)(OC)[C@@H](O)[C@H](C)O2)[C@H](C)[C@@H](O[C@@H]2O[C@H](C)C[C@H](N(C)C)[C@H]2O)[C@](C)(OC)C[C@@H](C)C(=O)[C@H](C)[C@@H](O)[C@]1(C)O	Helicobacter pylori	microbial growth, broth dilution	–	31.25 µg/mL	inhibition	100%
COc1cc(-c2cncc3c2CN(C)Cc2cc(N4CCNCC4)ccc2-3)cc(OC)c1OC	MAP3K20 (Homo sapiens, UniProt Q9NYL2)	enzyme activity, inhibitor	–	1 µM	remaining activity	72%
Cc1ccc(N(O)N=Nc2ccc(S(=O)(=O)Nc3onc(C)c3C)cc2)cc1	–	DPPH scavenging, absorbance	–	60 µg/mL	inhibition	7.69%
C1=C/COCc2cc(ccc2OCCN2CCCC2)Nc2nccc(n2)-c2cccc(c2)COC/1	PIK3CA M1043I	binding	–	0.1 µM	remaining binding	74%
CC(=NNC(=O)c1ccncc1)c1ccc(Nc2nnc(-c3ccc(Cl)cc3)c3ccccc23)cc1	HepG2	cell growth or viability, MTT	–	2.5 µM	cell death	96.1%
CN(C)c1ncc(F)c(-c2cnn3ncccc23)n1	SIK1 (Homo sapiens, UniProt P57059)	binding	–	1 µM	remaining binding	100%
NC/C(=C\F)COc1cccc(Cn2c(=S)[nH]c(=O)c3[nH]cnc32)c1	ADORA2A (Homo sapiens, UniProt P29274)	ligand displacement, radioligand	–	10 µM	inhibition	< 50%
CNc1ncc2c(/C=C/C(=O)N3CCC(OC)CC3)nn(Cc3cccc(C(F)(F)F)c3)c2n1	ARAF (Homo sapiens, UniProt P10398, Y301D/Y302D)	enzyme activity, inhibitor, radiometric	–	1 µM	remaining activity	95%
Nc1ncnc2occ(-c3ccc(NC(=O)Nc4cc(C(F)(F)F)ccc4F)cc3)c12	EIF2AK1 (Homo sapiens, UniProt Q9BQI3)	cell-free assay, inhibitor	–	20 µM	remaining signal	1.3%
CCCCC(=O)Nc1ccc(-c2ccc3ncn(CCC)c(=O)c3c2)cn1	PIK3CA (Homo sapiens, UniProt P42336, H1047L)	binding, competition with immobilised ligand	–	0.5 µM	remaining binding	100%
COc1cc2c(CCNC(C)=O)c[nH]c2cc1I	MTNR1A	GTPγS binding, agonist, radiometric	–	cell membranes	Emax	77%
C=CC(=O)N1CCC(COCC(=O)N2CCN(c3nc(-c4cnc(N)nc4C(F)F)nc(N4CCOC[C@@H]4C)n3)CC2)CC1	PIK3CA M1043I	binding, competition with immobilised ligand	–	1 µM	remaining binding	11%
Cc1cccc(N(O)N=Nc2ccc(S(=O)(=O)Nc3nccs3)cc2)c1	–	DPPH scavenging, absorbance	–	60 µg/mL	inhibition	27.6%
CCC(=O)NC1Cc2ccccc2C(c2ccccc2)C1 (stereo not drawn)	MTNR1A	β-arrestin recruitment, agonist	CHO-K1	90 min	Emax	68%
Cc1cc([C@@H](C)Nc2ccccc2C(=O)O)c2nc(N3CCC(F)(F)CC3)c(C#N)c(=O)n2c1	CHUK (Homo sapiens, UniProt O15111)	binding, competition with immobilised ligand	–	1 µM	remaining binding	91%

Repeated from above:
SMILES	target or system	test	system	conditions	measurement	result
CN(C)c1ncc(F)c(-c2cnn3ncccc23)n1	SIK1 (Homo sapiens, UniProt P57059)	binding	–	1 µM	remaining binding	100%
